Assay results pooled from the literature.
Numbered parts are unrelated; each lists some results of a single study.
Chain of UniProt P07949 (whole entry, unmodified, looked up): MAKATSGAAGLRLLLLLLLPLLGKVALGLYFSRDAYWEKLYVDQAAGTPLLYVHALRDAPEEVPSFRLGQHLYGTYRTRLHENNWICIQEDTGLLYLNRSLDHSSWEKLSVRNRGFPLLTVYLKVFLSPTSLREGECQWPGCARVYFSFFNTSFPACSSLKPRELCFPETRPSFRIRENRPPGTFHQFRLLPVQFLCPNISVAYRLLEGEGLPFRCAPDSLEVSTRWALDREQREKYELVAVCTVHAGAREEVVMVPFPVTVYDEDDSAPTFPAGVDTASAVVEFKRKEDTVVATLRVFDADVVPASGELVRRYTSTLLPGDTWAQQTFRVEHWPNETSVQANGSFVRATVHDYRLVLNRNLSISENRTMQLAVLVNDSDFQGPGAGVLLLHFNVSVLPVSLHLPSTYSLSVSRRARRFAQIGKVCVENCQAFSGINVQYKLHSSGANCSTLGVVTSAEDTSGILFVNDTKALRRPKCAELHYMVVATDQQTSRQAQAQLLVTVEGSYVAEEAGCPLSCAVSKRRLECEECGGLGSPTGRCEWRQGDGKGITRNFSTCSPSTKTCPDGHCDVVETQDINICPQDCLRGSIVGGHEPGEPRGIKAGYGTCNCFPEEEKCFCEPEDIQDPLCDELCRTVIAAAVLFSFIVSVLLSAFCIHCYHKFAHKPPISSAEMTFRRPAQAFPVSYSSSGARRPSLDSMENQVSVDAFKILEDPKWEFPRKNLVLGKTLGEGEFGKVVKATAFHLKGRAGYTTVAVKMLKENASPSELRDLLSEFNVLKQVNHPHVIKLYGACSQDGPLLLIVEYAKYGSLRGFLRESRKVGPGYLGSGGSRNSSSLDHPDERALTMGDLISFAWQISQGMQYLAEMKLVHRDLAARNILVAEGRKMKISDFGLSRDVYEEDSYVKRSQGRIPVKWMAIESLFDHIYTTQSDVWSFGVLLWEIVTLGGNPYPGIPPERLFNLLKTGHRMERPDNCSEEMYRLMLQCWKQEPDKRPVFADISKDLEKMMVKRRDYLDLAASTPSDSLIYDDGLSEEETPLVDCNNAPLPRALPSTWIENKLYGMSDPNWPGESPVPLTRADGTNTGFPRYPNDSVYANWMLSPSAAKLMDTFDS
Chain of UniProt Q15831 (whole entry, looked up): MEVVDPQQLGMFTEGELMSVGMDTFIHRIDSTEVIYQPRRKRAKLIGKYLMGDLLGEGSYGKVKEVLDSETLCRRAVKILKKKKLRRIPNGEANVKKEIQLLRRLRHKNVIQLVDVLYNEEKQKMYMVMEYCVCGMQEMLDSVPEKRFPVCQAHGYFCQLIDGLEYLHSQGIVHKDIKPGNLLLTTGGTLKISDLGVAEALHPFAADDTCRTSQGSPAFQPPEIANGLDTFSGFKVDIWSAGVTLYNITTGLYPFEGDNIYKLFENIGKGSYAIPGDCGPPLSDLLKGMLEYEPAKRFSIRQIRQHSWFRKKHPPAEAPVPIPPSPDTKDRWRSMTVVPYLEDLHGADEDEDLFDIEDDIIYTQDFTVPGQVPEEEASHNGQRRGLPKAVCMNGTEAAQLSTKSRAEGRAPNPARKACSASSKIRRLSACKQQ
Chain of UniProt P06239 (whole entry, looked up): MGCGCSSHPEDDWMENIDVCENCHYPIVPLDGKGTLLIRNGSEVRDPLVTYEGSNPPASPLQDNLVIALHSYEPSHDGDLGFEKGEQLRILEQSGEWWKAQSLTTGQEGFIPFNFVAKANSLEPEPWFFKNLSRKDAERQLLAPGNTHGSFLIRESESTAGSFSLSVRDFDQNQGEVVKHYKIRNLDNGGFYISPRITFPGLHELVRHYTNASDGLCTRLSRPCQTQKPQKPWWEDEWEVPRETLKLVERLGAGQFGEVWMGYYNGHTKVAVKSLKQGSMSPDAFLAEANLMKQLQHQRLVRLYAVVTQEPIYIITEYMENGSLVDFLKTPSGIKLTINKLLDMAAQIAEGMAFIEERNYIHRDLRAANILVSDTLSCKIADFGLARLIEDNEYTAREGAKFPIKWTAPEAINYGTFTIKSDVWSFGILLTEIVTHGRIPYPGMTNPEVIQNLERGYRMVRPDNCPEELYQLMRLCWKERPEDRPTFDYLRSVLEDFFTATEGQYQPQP
Chain of UniProt Q00535 (whole entry, looked up): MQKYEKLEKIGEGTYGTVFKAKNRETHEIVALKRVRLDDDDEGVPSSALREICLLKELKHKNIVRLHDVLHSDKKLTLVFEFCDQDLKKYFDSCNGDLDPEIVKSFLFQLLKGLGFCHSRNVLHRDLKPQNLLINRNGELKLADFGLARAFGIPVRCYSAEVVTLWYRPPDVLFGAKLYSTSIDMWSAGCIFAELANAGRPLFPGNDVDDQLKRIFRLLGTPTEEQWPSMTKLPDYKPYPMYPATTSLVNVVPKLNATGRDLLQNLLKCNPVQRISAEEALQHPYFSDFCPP
Chain of UniProt Q9UIK4 (whole entry, looked up): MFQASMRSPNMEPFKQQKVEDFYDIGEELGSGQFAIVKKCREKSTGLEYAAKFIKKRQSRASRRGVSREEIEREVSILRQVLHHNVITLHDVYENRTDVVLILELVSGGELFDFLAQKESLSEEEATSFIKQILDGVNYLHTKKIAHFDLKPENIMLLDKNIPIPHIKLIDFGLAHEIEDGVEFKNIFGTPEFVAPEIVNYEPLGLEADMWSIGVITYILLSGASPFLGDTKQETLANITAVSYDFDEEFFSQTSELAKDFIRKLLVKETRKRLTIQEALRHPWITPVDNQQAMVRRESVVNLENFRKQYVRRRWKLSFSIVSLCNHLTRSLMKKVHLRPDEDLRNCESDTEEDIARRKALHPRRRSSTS
Chain of UniProt P07948 (whole entry, looked up): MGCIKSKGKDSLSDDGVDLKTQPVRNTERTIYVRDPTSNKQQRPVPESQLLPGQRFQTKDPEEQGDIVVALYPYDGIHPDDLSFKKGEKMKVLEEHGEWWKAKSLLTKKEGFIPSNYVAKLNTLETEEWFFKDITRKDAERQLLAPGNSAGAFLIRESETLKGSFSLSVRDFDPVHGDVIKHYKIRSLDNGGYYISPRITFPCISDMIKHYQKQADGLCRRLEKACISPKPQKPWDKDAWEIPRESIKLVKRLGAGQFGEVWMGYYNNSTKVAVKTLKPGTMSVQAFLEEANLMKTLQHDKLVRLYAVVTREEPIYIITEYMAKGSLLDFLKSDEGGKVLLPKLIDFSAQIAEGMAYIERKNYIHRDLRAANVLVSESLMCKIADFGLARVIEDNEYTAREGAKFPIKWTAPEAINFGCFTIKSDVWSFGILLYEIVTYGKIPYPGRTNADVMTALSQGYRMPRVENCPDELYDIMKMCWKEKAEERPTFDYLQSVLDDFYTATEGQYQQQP
Chain of UniProt Q99759 (whole entry, looked up): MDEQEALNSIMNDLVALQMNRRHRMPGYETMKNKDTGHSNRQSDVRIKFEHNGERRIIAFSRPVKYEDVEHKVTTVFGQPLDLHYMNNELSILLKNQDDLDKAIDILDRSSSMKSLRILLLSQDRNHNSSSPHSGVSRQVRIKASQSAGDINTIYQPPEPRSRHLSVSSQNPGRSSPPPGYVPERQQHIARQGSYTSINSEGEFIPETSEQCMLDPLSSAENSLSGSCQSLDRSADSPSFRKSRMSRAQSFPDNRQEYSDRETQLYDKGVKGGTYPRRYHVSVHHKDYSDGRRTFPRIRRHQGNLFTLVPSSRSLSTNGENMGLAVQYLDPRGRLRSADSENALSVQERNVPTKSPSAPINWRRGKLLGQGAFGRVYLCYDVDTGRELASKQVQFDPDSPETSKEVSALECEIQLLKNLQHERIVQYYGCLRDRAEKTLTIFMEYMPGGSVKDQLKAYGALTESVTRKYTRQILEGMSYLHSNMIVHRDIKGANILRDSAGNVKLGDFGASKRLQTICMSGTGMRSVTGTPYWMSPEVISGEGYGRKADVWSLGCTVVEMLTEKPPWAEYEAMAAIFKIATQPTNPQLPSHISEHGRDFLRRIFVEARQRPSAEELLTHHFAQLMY
Chain of UniProt Q14164 (whole entry, looked up): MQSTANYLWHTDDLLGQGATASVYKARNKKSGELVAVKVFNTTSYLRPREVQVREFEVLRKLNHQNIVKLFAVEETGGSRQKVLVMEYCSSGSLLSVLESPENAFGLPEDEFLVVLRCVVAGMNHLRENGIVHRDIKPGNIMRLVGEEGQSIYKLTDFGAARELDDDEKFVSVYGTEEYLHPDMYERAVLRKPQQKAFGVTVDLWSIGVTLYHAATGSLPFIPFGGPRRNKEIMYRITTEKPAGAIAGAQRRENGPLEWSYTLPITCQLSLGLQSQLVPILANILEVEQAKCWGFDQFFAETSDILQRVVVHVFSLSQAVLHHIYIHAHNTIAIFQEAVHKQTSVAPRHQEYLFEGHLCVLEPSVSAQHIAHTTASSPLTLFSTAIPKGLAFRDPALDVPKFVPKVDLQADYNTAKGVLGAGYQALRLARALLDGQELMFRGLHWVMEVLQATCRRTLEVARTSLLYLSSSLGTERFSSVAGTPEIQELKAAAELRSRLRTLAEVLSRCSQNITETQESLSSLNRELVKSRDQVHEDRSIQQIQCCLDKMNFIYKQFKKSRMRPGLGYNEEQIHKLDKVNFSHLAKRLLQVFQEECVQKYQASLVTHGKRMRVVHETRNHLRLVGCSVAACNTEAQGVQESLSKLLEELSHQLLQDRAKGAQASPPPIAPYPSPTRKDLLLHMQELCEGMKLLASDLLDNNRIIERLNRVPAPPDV
Chain of UniProt Q9BXA7 (whole entry, looked up): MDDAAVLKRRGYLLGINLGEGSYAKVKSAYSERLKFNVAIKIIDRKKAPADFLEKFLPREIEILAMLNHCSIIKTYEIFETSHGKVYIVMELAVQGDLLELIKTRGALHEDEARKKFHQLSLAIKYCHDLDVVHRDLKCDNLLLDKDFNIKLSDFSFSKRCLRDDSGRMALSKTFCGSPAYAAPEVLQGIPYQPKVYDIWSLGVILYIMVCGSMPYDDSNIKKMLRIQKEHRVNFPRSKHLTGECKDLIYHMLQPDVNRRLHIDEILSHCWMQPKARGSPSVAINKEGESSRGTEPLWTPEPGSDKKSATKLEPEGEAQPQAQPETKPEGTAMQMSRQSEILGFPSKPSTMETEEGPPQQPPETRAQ

Series 1
Cell line: HaCaT
Concentration: 100 µM
Time: 36 h
SMILES | viability [%]
CC[C@H](C)C(=O)O[C@H]1CCC=C2C=C[C@H](C)[C@H](CC[C@@H]3C[C@@H](O)CC(=O)O3)[C@H]21 | 6.18
CCOC(N)=O | 89.3
C1N2CN3CN1CN(C2)C3 | 85.6
O=C(O)c1cc(O)c2c(c1)[C@H]([C@H]1c3cc(C(=O)O)cc(O)c3C(=O)c3c(O[C@@H]4O[C@H](CO)[C@@H](O)[C@H](O)[C@H]4O)cccc31)c1cccc(O[C@@H]3O[C@H](CO)[C@@H](O)[C@H](O)[C@H]3O)c1C2=O | 80.6
CCC(=O)O[C@@H](O[P@](=O)(CCCCc1ccccc1)CC(=O)N1C[C@H](C2CCCCC2)C[C@H]1C(=O)O)C(C)C | 97.3
Cc1ccc(C(=O)c2ccc(CC(=O)O)n2C)cc1 | 79.4
CC(=O)OCC1=C(C(=O)O)N2C(=O)[C@@H](NC(=O)Cc3cccs3)[C@H]2SC1 | 108
CC(=O)CCCCn1c(=O)c2c(ncn2C)n(C)c1=O | 56.1
CC[C@H](C)C[C@H](C)CCCCCCCCC(=O)N[C@H]1C[C@@H](O)[C@@H](NCCN)NC(=O)[C@@H]2[C@@H](O)CCN2C(=O)[C@H]([C@H](O)CCN)NC(=O)[C@H]([C@H](O)[C@@H](O)c2ccc(O)cc2)NC(=O)[C@@H]2C[C@@H](O)CN2C(=O)[C@H]([C@@H](C)O)NC1=O | 36.6
N#CC1(c2ccc(NC(=O)c3cccnc3NCc3ccncc3)cc2)CCCC1 | 25.3
NC(=O)NS(=O)(=O)c1ccc(N)cc1 | 90.3
O=C(CCCN1CC=C(n2c(=O)[nH]c3ccccc32)CC1)c1ccc(F)cc1 | 7.24
N#Cc1ccc2[nH]cc(CCCCN3CCN(c4ccc5oc(C(N)=O)cc5c4)CC3)c2c1 | 5.65

Series 2
Compound: Nc1[nH]nc2nnc(-c3c(-c4ccccc4)nn4ccccc34)cc12
Observed: enzyme activity
Action: inhibitor
Concentration: 0.5 µM
Reference: control
target | remaining activity [%]
Inhibitor of nuclear factor kappa-B kinase subunit beta (IKBKB, Homo sapiens, UniProt O14920) | 115
Protein kinase C alpha type (PRKCA, Homo sapiens, UniProt P17252) | 87.2
Calcium/calmodulin-dependent protein kinase kinase 2 (CAMKK2, Homo sapiens, UniProt Q96RR4) | 101
Protein kinase C beta type, isoform beta-I (PRKCB, Homo sapiens, UniProt P05771) | 96.5
STE20/SPS1-related proline-alanine-rich protein kinase (STK39, Homo sapiens, UniProt Q9UEW8) | 89.1
Calcium/calmodulin-dependent protein kinase type II subunit delta (CAMK2D, Homo sapiens, UniProt Q13557) | 96.5
Tyrosine-protein kinase Lyn, isoform B (LYN, Homo sapiens, UniProt P07948) | 97.1
cGMP-dependent protein kinase 1, isoform beta (PRKG1, Homo sapiens, UniProt Q13976) | 89.5
Mitogen-activated protein kinase kinase kinase 3 (MAP3K3, Homo sapiens, UniProt Q99759) | 110
Inhibitor of nuclear factor kappa-B kinase subunit epsilon (IKBKE, Homo sapiens, UniProt Q14164) | 95.5
Serine/threonine-protein kinase STK11 (STK11, Homo sapiens, UniProt Q15831) | 91.8
Mitogen-activated protein kinase 9 (MAPK9, Homo sapiens, UniProt P45984) | 48.4
Cyclin-dependent kinase 4, with cyclin D1 (CDK4, Homo sapiens, UniProt P11802) | 89.2
Serine/threonine-protein kinase OSR1 (OXSR1, Homo sapiens, UniProt O95747) | 102
Cyclin-dependent kinase 5, with p25 (CDK5, Homo sapiens, UniProt Q00535) | 101
cAMP-dependent protein kinase catalytic subunit alpha (PRKACA, Homo sapiens, UniProt P17612) | 97.7
Serine/threonine-protein kinase Chk2 (CHEK2, Homo sapiens, UniProt O96017) | 97
Serine/threonine-protein kinase 10 (STK10, Homo sapiens, UniProt O94804) | 70.9
Death-associated protein kinase 1 (DAPK1, Homo sapiens, UniProt P53355) | 95.9
TGF-beta receptor type-2 (TGFBR2, Homo sapiens, UniProt P37173) | 112
Death-associated protein kinase 2 (DAPK2, Homo sapiens, UniProt Q9UIK4) | 103
TGF-beta receptor type-1 (TGFBR1, Homo sapiens, UniProt P36897) | 96.1
Serine/threonine-protein kinase Nek2 (NEK2, Homo sapiens, UniProt P51955) | 95.3
G protein-coupled receptor kinase 3 (GRK3, Homo sapiens, UniProt P35626) | 101

Series 3
Structure (SMILES): C[C@H](c1ccc(F)cc1)N(Cc1cccc(C(=O)O)c1)C(=O)c1cnc2ccccc2c1
Observed: cell-free assay
Technique: competition with immobilised ligand
Concentration: 1 µM
target | remaining binding [%]
Microtubule-associated serine/threonine-protein kinase 1 (MAST1, Homo sapiens, UniProt Q9Y2H9) | 100
Cyclin-dependent kinase 16 (CDK16, Homo sapiens, UniProt Q00536) | 100
Tyrosine-protein kinase Lck (LCK, Homo sapiens, UniProt P06239) | 100
Phosphorylase b kinase gamma catalytic chain, liver/testis isoform (PHKG2, Homo sapiens, UniProt P15735) | 100
Serine/threonine-protein kinase TBK1 (TBK1, Homo sapiens, UniProt Q9UHD2) | 91
Ribosomal protein S6 kinase alpha-1, N-terminal kinase domain (RPS6KA1, Homo sapiens, UniProt Q15418) | 100
Tyrosine-protein kinase ABL1, non-phosphorylated (ABL1, Homo sapiens, UniProt P00519, Q252H) | 90
Serine/threonine-protein kinase pim-3 (PIM3, Homo sapiens, UniProt Q86V86) | 100
Phosphorylase b kinase gamma catalytic chain, skeletal muscle/heart isoform (PHKG1, Homo sapiens, UniProt Q16816) | 88
Proto-oncogene tyrosine-protein kinase ROS (ROS1, Homo sapiens, UniProt P08922) | 100
Serine/threonine-protein kinase RIO2 (RIOK2, Homo sapiens, UniProt Q9BVS4) | 80
Serine/threonine-protein kinase WNK2 (WNK2, Homo sapiens, UniProt Q9Y3S1) | 96
Atypical kinase COQ8B, mitochondrial (COQ8B, Homo sapiens, UniProt Q96D53) | 86
Mitogen-activated protein kinase 7 (MAPK7, Homo sapiens, UniProt Q13164) | 78
Testis-specific serine/threonine-protein kinase 1 (TSSK1B, Homo sapiens, UniProt Q9BXA7) | 91
Mitogen-activated protein kinase kinase kinase 10 (MAP3K10, Homo sapiens, UniProt Q02779) | 100
Epidermal growth factor receptor (EGFR, Homo sapiens, UniProt P00533) | 100
Protein kinase C eta type (PRKCH, Homo sapiens, UniProt P24723) | 75
Proto-oncogene tyrosine-protein kinase receptor Ret (RET, Homo sapiens, UniProt P07949, V804L) | 85
Proto-oncogene tyrosine-protein kinase receptor Ret (RET, Homo sapiens, UniProt P07949) | 100

Series 4
SMILES: Cc1nc(Nc2ncc(C(=O)Nc3c(C)cccc3Cl)s2)cc(N2CCN(CCO)CC2)n1
Action: inhibitor
target | concentration | inhibition [%]
cAMP-dependent protein kinase catalytic subunit alpha (PRKACA, Homo sapiens, UniProt P17612) | 10 µM | < 50
Dual specificity mitogen-activated protein kinase kinase 3 (MAP2K3, Homo sapiens, UniProt P46734) | 10 µM | < 50
Discoidin domain-containing receptor 2 (DDR2, Homo sapiens, UniProt Q16832) | 10 µM | 100
Atypical kinase COQ8A, mitochondrial (COQ8A, Homo sapiens, UniProt Q8NI60) | 10 µM | 100
Cyclin-dependent kinase 2 (CDK2, Homo sapiens, UniProt P24941) | 1 µM | < 50
Cyclin-dependent kinase 8 (CDK8, Homo sapiens, UniProt P49336) | 10 µM | < 50
Fibroblast growth factor receptor 4 (FGFR4, Homo sapiens, UniProt P22455) | 10 µM | < 50
Phosphatidylinositol 4-phosphate 5-kinase type-1 alpha (PIP5K1A, Homo sapiens, UniProt Q99755) | 10 µM | < 50
Insulin receptor-related protein (INSRR, Homo sapiens, UniProt P14616) | 10 µM | < 50
